Results collected from several papers.
Lines come from different studies, so protocols differ. ± gives the spread as reported.
U2AF2: U2AF2 148-342 (Homo sapiens, UniProt P26368)
Sequence of UniProt P26368 (whole entry, looked up): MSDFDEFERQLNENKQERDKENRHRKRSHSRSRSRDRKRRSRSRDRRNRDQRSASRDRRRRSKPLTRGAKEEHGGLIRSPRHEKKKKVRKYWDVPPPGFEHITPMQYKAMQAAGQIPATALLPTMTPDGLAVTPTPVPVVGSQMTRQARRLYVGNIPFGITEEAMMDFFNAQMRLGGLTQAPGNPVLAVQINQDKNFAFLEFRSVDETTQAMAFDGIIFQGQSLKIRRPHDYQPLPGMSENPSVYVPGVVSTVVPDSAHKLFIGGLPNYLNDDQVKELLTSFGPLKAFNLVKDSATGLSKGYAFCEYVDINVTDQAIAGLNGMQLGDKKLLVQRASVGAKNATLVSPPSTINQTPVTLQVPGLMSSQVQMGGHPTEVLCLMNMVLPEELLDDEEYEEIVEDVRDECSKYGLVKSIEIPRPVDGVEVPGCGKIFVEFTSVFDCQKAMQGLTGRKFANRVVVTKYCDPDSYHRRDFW
WRKY60 full length assumed: WRKY60 full length assumed (Arabidopsis thaliana, UniProt Q9SK33)
Sequence of UniProt Q9SK33 (whole entry, looked up): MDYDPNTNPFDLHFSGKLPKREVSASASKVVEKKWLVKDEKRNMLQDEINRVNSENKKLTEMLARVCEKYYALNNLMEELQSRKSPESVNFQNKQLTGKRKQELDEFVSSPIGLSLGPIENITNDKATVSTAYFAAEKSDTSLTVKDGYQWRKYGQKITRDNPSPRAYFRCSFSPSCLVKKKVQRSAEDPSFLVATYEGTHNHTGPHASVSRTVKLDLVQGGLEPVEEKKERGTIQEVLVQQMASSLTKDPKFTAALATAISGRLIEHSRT
WT1: WT1 323-438 (Homo sapiens, UniProt P19544)
Sequence of UniProt P19544 (whole entry, looked up): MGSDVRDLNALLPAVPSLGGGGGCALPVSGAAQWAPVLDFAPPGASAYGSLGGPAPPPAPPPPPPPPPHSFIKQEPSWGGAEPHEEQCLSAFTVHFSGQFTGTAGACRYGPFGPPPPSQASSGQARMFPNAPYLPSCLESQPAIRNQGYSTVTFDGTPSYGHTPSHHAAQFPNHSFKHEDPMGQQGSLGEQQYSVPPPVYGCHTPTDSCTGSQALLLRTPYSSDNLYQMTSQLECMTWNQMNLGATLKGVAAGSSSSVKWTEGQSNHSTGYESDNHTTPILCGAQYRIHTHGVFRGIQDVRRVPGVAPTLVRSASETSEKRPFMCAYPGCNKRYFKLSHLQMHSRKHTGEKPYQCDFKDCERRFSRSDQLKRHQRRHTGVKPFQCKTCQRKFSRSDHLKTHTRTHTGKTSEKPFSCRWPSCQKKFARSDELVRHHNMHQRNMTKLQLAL
Sequence of UniProt P19838 (whole entry, looked up): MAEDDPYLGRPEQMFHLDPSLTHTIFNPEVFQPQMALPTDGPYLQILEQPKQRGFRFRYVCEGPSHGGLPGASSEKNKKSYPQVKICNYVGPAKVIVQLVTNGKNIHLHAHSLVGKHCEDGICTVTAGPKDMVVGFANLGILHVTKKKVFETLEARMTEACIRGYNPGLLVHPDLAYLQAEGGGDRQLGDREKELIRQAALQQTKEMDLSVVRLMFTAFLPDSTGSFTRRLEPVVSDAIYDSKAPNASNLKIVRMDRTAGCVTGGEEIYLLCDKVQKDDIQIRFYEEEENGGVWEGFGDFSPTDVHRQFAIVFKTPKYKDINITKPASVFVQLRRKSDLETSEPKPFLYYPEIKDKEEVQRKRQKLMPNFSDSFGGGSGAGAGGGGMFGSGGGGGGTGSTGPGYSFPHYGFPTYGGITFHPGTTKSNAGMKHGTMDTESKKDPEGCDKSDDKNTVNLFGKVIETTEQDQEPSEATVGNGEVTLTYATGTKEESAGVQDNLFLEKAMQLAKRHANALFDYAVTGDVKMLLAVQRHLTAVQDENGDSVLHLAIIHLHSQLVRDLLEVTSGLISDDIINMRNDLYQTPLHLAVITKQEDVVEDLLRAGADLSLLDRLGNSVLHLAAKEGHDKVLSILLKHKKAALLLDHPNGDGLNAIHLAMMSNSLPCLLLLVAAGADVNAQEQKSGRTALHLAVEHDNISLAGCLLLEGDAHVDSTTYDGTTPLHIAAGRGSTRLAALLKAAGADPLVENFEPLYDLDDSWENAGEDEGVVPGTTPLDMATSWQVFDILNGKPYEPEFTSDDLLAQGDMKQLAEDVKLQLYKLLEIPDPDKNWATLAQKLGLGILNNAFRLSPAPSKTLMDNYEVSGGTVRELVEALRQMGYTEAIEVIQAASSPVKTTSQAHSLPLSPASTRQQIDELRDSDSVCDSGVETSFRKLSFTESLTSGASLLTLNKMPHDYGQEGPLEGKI
Sequence of UniProt Q43349 (whole entry, looked up): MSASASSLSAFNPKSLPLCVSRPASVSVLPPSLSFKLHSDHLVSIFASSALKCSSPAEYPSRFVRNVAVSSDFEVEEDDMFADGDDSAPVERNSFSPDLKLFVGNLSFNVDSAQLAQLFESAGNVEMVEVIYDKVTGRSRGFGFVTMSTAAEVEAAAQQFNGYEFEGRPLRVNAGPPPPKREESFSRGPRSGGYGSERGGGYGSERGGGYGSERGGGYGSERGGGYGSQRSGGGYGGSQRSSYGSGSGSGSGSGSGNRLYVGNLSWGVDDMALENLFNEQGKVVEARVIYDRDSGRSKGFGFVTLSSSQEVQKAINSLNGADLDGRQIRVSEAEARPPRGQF
Sequence of UniProt Q5NB82 (whole entry, looked up): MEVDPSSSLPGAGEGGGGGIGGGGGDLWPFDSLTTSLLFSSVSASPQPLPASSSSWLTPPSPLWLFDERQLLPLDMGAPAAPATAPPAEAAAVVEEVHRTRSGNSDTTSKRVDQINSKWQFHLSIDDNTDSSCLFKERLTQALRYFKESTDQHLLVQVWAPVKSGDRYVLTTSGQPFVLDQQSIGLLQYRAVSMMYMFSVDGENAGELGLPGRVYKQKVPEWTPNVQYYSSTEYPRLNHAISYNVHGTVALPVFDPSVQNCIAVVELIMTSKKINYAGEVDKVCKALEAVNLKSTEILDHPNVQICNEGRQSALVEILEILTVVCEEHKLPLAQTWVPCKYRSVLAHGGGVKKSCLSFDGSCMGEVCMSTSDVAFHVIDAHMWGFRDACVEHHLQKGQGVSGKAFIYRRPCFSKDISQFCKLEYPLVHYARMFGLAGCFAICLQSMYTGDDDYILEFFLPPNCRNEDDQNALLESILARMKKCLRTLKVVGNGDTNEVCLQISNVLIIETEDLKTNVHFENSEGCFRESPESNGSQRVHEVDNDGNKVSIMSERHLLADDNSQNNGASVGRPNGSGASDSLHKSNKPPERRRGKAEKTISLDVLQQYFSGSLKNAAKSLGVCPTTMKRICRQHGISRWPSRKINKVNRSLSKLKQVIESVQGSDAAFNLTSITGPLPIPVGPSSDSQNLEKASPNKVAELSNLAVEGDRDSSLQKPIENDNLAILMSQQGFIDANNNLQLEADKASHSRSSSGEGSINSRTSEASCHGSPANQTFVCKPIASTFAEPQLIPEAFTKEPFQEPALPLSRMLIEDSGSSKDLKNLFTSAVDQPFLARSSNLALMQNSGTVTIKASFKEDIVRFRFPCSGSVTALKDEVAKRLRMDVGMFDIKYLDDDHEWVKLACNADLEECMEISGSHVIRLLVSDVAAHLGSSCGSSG
Sequence of UniProt P21980 (whole entry, looked up): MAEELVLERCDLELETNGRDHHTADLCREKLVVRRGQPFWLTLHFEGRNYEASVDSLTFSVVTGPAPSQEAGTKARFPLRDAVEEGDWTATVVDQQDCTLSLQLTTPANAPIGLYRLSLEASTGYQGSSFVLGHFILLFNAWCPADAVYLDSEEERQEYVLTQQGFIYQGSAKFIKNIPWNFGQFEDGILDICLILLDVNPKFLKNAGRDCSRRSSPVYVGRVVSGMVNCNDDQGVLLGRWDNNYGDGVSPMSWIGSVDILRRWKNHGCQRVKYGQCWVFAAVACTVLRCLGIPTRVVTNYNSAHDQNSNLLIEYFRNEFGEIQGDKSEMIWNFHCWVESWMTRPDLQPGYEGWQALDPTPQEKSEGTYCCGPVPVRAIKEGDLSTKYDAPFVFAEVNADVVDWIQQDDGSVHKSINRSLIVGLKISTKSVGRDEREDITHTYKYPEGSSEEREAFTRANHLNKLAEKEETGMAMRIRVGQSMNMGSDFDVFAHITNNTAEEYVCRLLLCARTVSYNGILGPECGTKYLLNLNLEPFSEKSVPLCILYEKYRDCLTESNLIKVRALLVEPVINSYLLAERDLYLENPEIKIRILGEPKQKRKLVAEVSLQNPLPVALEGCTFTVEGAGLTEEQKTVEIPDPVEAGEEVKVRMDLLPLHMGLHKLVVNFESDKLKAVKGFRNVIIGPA
Sequence of UniProt Q6L5E5 (whole entry, looked up): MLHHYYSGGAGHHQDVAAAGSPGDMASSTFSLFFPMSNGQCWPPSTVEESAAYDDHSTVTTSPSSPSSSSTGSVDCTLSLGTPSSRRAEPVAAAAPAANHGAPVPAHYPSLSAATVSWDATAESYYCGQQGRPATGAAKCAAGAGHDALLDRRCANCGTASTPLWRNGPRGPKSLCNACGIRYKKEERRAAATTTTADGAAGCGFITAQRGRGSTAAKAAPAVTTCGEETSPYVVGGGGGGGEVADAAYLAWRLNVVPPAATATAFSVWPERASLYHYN
Sequence of UniProt Q9HC16 (whole entry, looked up): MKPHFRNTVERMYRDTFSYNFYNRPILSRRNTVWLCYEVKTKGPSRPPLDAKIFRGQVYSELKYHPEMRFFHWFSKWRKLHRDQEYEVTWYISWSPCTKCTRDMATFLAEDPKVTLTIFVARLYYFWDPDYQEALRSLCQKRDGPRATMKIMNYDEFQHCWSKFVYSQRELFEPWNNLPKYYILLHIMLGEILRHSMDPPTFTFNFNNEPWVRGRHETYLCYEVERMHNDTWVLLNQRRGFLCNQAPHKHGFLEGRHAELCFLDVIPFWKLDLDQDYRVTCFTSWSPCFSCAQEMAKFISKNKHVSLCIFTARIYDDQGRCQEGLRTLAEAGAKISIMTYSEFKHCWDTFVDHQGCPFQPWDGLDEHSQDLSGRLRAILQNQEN
Sequence of UniProt Q8GWK6 (whole entry, looked up): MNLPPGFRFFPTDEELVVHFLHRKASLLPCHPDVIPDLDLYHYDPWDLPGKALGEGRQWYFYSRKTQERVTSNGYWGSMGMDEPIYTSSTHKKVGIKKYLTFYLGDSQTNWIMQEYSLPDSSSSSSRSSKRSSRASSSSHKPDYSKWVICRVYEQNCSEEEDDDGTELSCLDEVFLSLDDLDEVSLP

For `AAAAAAGAACCTCTGTCATTGTACAGAAAAATCGTAATAACCC (dsDNA)`, binding read “no binding” (EIN3 1-628 (Arabidopsis thaliana, UniProt O24606); EMSA; double-stranded DNA, one strand shown).
The Kd of `AUACUUUUU (ssRNA)` is reported as 3.48 µM (U2AF2; sequencing of bound RNA; RNA; motif only).
With `GGGAGCAGGAGAGAGGUCAGAUGAUACGAGAGAUGUAACCCGUCCUGCAAUCACCUAUGCGUGCUAGUGUGA (ssRNA; 2'-fluoro pyrimidines)` the relative binding was 46.2 RU (TGM2 2-687 (Homo sapiens, UniProt P21980); SPR; RNA; with: MgCl2 5 mM; higher = more binding).
The Kd of `GUCAAUUUU (ssRNA)` is reported as 9.31 µM (U2AF2; sequencing of bound RNA; RNA; motif only).
`GATTCACGATTATTTATATGAAAATATAATAAATATTGAATTTCCTTTGCTATTT (dsDNA)`: binding “binds” (hb-1 full length assumed (Solanum lycopersicum, UniProt B6GVA3); EMSA; double-stranded DNA, one strand shown).
`GTTACT (ssDNA)`: binding “binds” (CP29A 255-334 (Arabidopsis thaliana, UniProt Q43349); NMR titration; single-stranded DNA).
Under binding, `GCCCCCACTTACTAACCCCCT (dsDNA)` is recorded as “no binding” (Auxin response factor 1-610 (Capsicum annuum, UniProt A0A1U8F1G4); EMSA; double-stranded DNA, one strand shown).
Under binding, `TTTGAGAAAGAATCAAGAAAAGTTTCGGACTACTCTCTTAGATAAA (dsDNA)` is recorded as “binds” (ORC1-type DNA replication protein full length assumed (Saccharolobus islandicus, UniProt F0NF18); EMSA; double-stranded DNA, one strand shown).
`CTGTTTTATTCACTTGATCTTCTTAATCTTTTAAATTGCCTATCTTTTGCTATGTTTTTGTTACAATTTAAATTGACAAGTACTTAGAAAAACAAACAAAAATGATATCTCTGTTCCATCTTAGATTATTCGTTTCTTATTTCTCTTAATATATATTTTTGAACACGCTTATTTCTCTTATATATGTTGCAATATTC (dsDNA)`: binding “binds” (WRKY60 full length assumed; EMSA; double-stranded DNA, one strand shown).
`UUAUUUUUAAGGAUUUAUUUAUUUA (ssRNA)`: binding “binds” (APOBEC3G 1-384 (Homo sapiens, UniProt Q9HC16); UV cross-linking, SDS-PAGE, MS; RNA).
Under binding, `TGTATATATAAAGAAGGGAGCTGGCTCTAGAGGTAAGCCAT (dsDNA)` is recorded as “binds” (BZIP domain-containing protein full length assumed (Triticum aestivum, UniProt A0A3B6EMK6); EMSA; double-stranded DNA, one strand shown).
`GGGTTGCGGCCGCTTGGG (dsDNA)`: binding “binds” (PARP1 del BRCT domain (Homo sapiens, UniProt P09874); stopped-flow fluorescence anisotropy; double-stranded DNA, one strand shown).
`GTTGAATGTCACCTAGCTAGCACGTGACCCGCCTTTTCCCCGCACG (dsDNA)`: binding “binds” (BZR1 1-298 (Oryza sativa, UniProt Q7XI96); EMSA; double-stranded DNA, one strand shown).
Under binding, `GCAGCCCTGGTTAAAAACAAGGTTTATAAATATTGGTTTAAAAGCAGGTTAAAAGACAGGTTAGCGGTGG (ssDNA; 5-Br-dU at T24)` is recorded as “binds” (trfA 98-382 G254D/S267L (Escherichia coli, UniProt P07676); EMSA; single-stranded DNA).
Under binding, `ATGTCACTGGAATATTCGCGCACCGT (dsDNA)` is recorded as “binds” (HSFA4D 1-459 (Oryza sativa, UniProt Q93VB5); EMSA; double-stranded DNA, one strand shown).
Under binding, `RNA 1 GCGUCUUUACGGUGCUUAAAACAAAACAAAACAAAACAAAA / RNA 2 AGCACCGUAAAGACGC (dsRNA; 3' overhang)` is recorded as “binds” (DDX3X 132-662 (Homo sapiens, UniProt O00571); mass photometry; double-stranded RNA).
Under binding, `GGCCATCATCAATGAAGATCCCACCAAGGGACAAAA (dsDNA)` is recorded as “binds” (GATA15 full length assumed (Oryza sativa, UniProt Q6L5E5); EMSA; double-stranded DNA, one strand shown).
Under binding, `CAATCCTATTGCTTCTATACTTGACACCAATTTTCATACTGATAGATT (dsDNA)` is recorded as “binds” (WRKY23 (Oryza sativa, UniProt Q7E0X1); EMSA; double-stranded DNA, one strand shown).
Under binding, `DNA 1 TATAAGGGATTTTGCCGATTTCGGCCTATTGGTTAAAAAATGAGCTGATTTAACAAAAATTTAACGCGAATTTTAACAAAATATTAACGCTTACAATTTA / DNA 2 GACGCTGCCGAATTCTGGCTTGCTAGGACATCTTTGCCCACGTTGACCCGAATCAGCTCATTTTTTAACCAATAGGCCGAAATCGGCAAAATCCCTTATA (dsDNA; fork; unpaired arms)` is recorded as “binds” (protein full length assumed (Mycosarcoma maydis, UniProt Q8NJ74); EMSA).
`TCGGTACCCGTGGATC (dsDNA)`: binding “binds” (protein full length assumed E367A (Bacillus pumilus, UniProt A3FMN7); EMSA; double-stranded DNA, one strand shown).
`ACCAAGCGTGATGCGGAGCCGCCGCCGCCGCCG (dsDNA; blunt)`: binding “no binding” (WT1; EMSA; double-stranded DNA, one strand shown).
For `GGAATTGGTCAGTGCTAATCCTTGGTCAGTGCAGCTA (dsDNA (Caenorhabditis elegans); blunt)`, binding read “binds” (him-8 full length assumed (Caenorhabditis elegans, UniProt O18068); streptavidin pull-down, western blot; double-stranded DNA, one strand shown; 1 µM).
`CATCTCTTACTTTCTATAGGTGTCATAC (dsDNA)` — result for binding: “binds” (NLP3 full length assumed (Oryza sativa, UniProt Q5NB82); EMSA; double-stranded DNA, one strand shown).
`UACAGAG (ssRNA)` — result for binding: “no binding” (SART3 697-786 (Homo sapiens, UniProt Q15020); ITC; RNA).
`CCAATGTGTAACAAGTAACTTATGACAACACAAATTTCTTCTTTGGTAGAAAACAAACGGGTAAGTAAAAAGAAAAGAAAAAAAGAAGTGAGTGAGAAGAGAGTGTAAGTATAAATAAAAGAAGCACCGCCCTAATCGACCATTCACAACGATGACATTCAAACACTCTTCAG (dsDNA)`: binding “binds” (WRKY60 full length assumed; EMSA; double-stranded DNA, one strand shown).
`ATCTGGGAATTCCCAGAT (dsDNA; blunt/self-complementary palindrome)` — result for binding: “binds” (NFKB1 41-249 (Homo sapiens, UniProt P19838); NMR; double-stranded DNA, one strand shown).
For `AGTTATATGCGTTTGATCATTTGTCAAAATTTAGTGAAACTTTAAAAT (dsDNA)`, binding read “binds” (NLP3 1-938 (Oryza sativa, UniProt Q5NB82); EMSA; double-stranded DNA, one strand shown).
`TCTTGTATTTTAGGAATCTACCACAATTTTTTC (dsDNA (Drosophila melanogaster); blunt)` — result for binding: “no binding” (sv (Drosophila melanogaster, UniProt Q59DN9); competition; double-stranded DNA, one strand shown).
`ACCAAGCGGGATGTGGAGCCGCCGCCGCCGCCG (dsDNA; blunt)`: binding “no binding” (WT1; EMSA; double-stranded DNA, one strand shown).
`CAGCCAACTAAACTA (dsDNA)` — result for binding: “binds” (tnsC 1-503 A225V (Escherichia coli, UniProt P05846); EMSA; double-stranded DNA, one strand shown; with: ATP 0.33 mM).
For `CTTATTTCTTCTTCAACACGGTTTAA (dsDNA)`, binding read “binds” (NAC104 full length assumed (Arabidopsis thaliana, UniProt Q8GWK6); EMSA; double-stranded DNA, one strand shown).
For `AATTGTACATGCATATAAAGAACCCAAACATGGTAACA (dsDNA)`, binding read “binds” (TaB3 1-272 (Triticum aestivum, UniProt A0A3B6ITW4); EMSA; double-stranded DNA, one strand shown).
`TGTTTT (ssDNA)` — result for binding: “binds” (CP29A 97-176 (Arabidopsis thaliana, UniProt Q43349); NMR titration; single-stranded DNA).
`ACCAAGCGGGATGCGGAGCCGCCGCCGCCGCCG (dsDNA; blunt)`: binding “binds” (WT1; EMSA; double-stranded DNA, one strand shown).
For `AGAGACTATTGACCAGTGAGTC (dsDNA (Saccharum))`, binding read “binds” (WRKY2 full length assumed (Saccharum hybrid, UniProt A0A5J6RV71); EMSA; double-stranded DNA, one strand shown).
For `TGGTATTTTGACGTGTGGGCATCACAGGTGCACGTGAAAACCCATTTT (dsDNA)`, binding read “binds” (NAC067 1-276 (Oryza sativa, UniProt Q7EZT1); EMSA; double-stranded DNA, one strand shown).
Under binding, `GCAGCUCGGGGAUCAUGGCCCACUGAACCCCCAAGCGC (structured RNA)` is recorded as “binds” (NFKB1 41-365 (Homo sapiens, UniProt P19838); EMSA; folded RNA).
For `DNA 1 GTCCCTAGCGG / DNA 2 CGGGAACCGCCGCTAGGGAC (dsDNA; 11 bp duplex, 5' overhang, recessed primer)`, binding read “binds” (polA 293-832 K505G/E507G (Thermus aquaticus, UniProt P19821); fluorescence polarization; double-stranded DNA).
For `TTACTCAACCGTAACCGATTTTGCCAGGTTACGCGG (dsDNA)`, binding read “binds” (TnsD/uL29/ACP 1-508; 1-63; 1-78 (Escherichia coli); EMSA; double-stranded DNA, one strand shown).
With `TGGATCAATCGTATAAAGAGAATTCCTGGTATGGATCAAGTCAATCGGTCC (dsDNA; 5'-amino-C6 primer)` the Kd was 0.00423 ± 0.0004 µM (SPT15 full length assumed (Saccharomyces cerevisiae, UniProt P13393); array; double-stranded DNA, one strand shown; TBP alone).
Under binding, `DNA 1 ATACCAGCTTATTCAATT / DNA 2 ATTGCTCCTCAGCAATTGAATAAGCT (dsDNA; 13 bp duplex, 5' overhangs, 5'-NH2)` is recorded as “no binding” (ENO2 2-434 (Homo sapiens, UniProt P09104); magnetic bead strand displacement; double-stranded DNA).

For quick reference, copied from above:
`CAGCCAACTAAACTA (dsDNA)` — result for binding: “binds” (tnsC 1-503 A225V (Escherichia coli, UniProt P05846); EMSA; double-stranded DNA, one strand shown; with: ATP 0.33 mM).
For `CTTATTTCTTCTTCAACACGGTTTAA (dsDNA)`, binding read “binds” (NAC104 full length assumed (Arabidopsis thaliana, UniProt Q8GWK6); EMSA; double-stranded DNA, one strand shown).
For `AATTGTACATGCATATAAAGAACCCAAACATGGTAACA (dsDNA)`, binding read “binds” (TaB3 1-272 (Triticum aestivum, UniProt A0A3B6ITW4); EMSA; double-stranded DNA, one strand shown).
`TGTTTT (ssDNA)` — result for binding: “binds” (CP29A 97-176 (Arabidopsis thaliana, UniProt Q43349); NMR titration; single-stranded DNA).
